Experimental data pooled from the literature.
Numbers after ± are the reported error.

CCCCCCCCCCCCCCCCOP(=O)(O)Oc1c2c(c(OP(=O)(O)OCCCCCCCCCCCCCCCC)c3c1C1CC3c3cc4c(cc31)C1CC4c3ccccc31)C1CC2c2cc3c(cc21)C1CC3c2ccccc21
dye leakage (liposomes; 30 min): < 50%

CCCC[C@H](NC(=O)[C@@H](NC(=O)[C@H](CC(=O)O)NC(=O)[C@H](CCC(N)=O)NC(=O)[C@H](CC(C)C)NC(=O)[C@H](CC(C)C)NC(=O)[C@H](CCCN)NC(=O)[C@H](CCCNC(=N)N)NC(=O)[C@H](C)NC(=O)[C@H](CO)NC(=O)[C@H](CC(C)C)NC(=O)[C@H](CCC(N)=O)NC(=O)[C@H](CC)NC(=O)[C@H](CC(C)C)NC(=O)[C@@H](NC(=O)[C@H](CCCN)NC(=O)[C@H](CCCNC(=N)N)NC(=O)[C@H](Cc1ccc(O)cc1)NC(=O)[C@H](CO)NC(=O)[C@H](CCC(N)=O)NC(=O)[C@@H](NC(=O)[C@H](Cc1ccccc1)NC(=O)[C@@H](NC(=O)[C@H](C)NC(=O)[C@H](CC(=O)O)NC(=O)[C@@H](C)NC(=O)[C@H](Cc1ccc(O)cc1)NC)[C@@H](C)CC)[C@@H](C)O)C(C)C)[C@@H](C)CC)C(=O)N[C@@H](CC(=O)O)C(=O)N[C@@H](CCCNC(=N)N)C(=O)NCC
relative potency (GH release; male rat, serum; subcutaneous, dose not given, 30 min; reference: GHRH(1-29)NH2): 108

COc1ccc2c(c1)c(CC(=O)OCOC(C)=O)c(C)n2C(=O)c1ccc(Cl)cc1
latency of nociceptive response (hot plate test; BALB/c mice; 100 mg/kg, 90 min): 17.6 ± 1.13 s

CC1=C(C2=C(C)C(=O)c3c(cc(O)c(O)c3Cc3ccccc3)C2=O)C(=O)c2cc(O)c(O)c(Cc3ccccc3)c2C1=O (single isomer, unassigned)
maximal activity (spleen shrinkage; B6 Bcl-2-transgenic mice; ip, 20 µmol/kg; reference: maximum 50%): ~82%

N=C(N)NCCC[C@@H](N)C(=O)NCC(=O)N[C@H](CCC(=O)O)C(=O)N[C@H](CCCNC(=N)N)C(=O)N1CCC[C@@H]1C(=O)N1CCC[C@@H]1C(=O)N[C@H](CCCNC(=N)N)C(N)=O
Evans blue tumour permeation increase (nude mouse A549 subcutaneous tumour; intravenous, 4 µmol/kg, 30 min, added: Evans blue 1 mg intravenous; reference: PBS control): 46.4%

Sc1nnc(-c2ccccc2Cl)o1
IC50 (nitric oxide scavenging): 79.3 ± 3.1 µM

CCCCCCCCCCCCCCCC(=O)N[C@@H](CCC(=O)NCCCC[C@H](NC(=O)[C@H](CC(=O)O)NC(=O)[C@H](CO)NC(=O)[C@@H](NC(=O)[C@H](Cc1ccccc1)NC(=O)[C@@H](NC(=O)CNC(=O)[C@H](CCC(N)=O)NC(=O)[C@H](CO)NC(=O)[C@@H](N)Cc1c[nH]cn1)[C@@H](C)O)[C@@H](C)O)C(=O)N[C@@H](CO)C(=O)N[C@@H](CCC(=O)O)C(=O)N[C@@H](Cc1ccc(O)cc1)C(=O)N[C@@H](CC(C)C)C(=O)N[C@@H](CC(=O)O)C(=O)N[C@@H](CO)C(=O)N[C@@H](CCC(=O)O)C(=O)N[C@@H](CCCNC(=N)N)C(=O)N[C@@H](C)C(=O)N[C@@H](CCCNC(=N)N)C(=O)N[C@@H](CC(=O)O)C(=O)N[C@@H](Cc1ccccc1)C(=O)N[C@H](C(=O)N[C@@H](C)C(=O)N[C@@H](Cc1c[nH]c2ccccc12)C(=O)N[C@@H](CC(C)C)C(=O)N[C@@H](CCC(=O)O)C(=O)N[C@@H](C)C(=O)NCC(=O)NCC(=O)O)C(C)C)C(=O)O
body weight loss (diet-induced obese mouse; subcutaneous, 10 nmol/kg daily, 4 weeks; reference: starting body weight): 21%

CC(C)[C@H](N)C(=O)N1CCC[C@H]1C(=O)NCC(=O)NCC(=O)O
activation energy (diketopiperazine formation, Arrhenius plot, ESI-MS; 1-propanol; 70, 80, 90 °C, 0.5% acetic acid): 20.3 ± 0.239 kcal/mol

CNC1CCC(N(Cc2cccc(-c3ccncc3)c2)C(=O)c2sc3ccccc3c2Cl)CC1 (centres unmarked)
concentration inducing MNR2 (chick neural plate explants; 22 h): 10 to 200 nM

Cc1ccc([C@@H]2O[C@H](CO)[C@@H](O)[C@H](O)[C@H]2O)cc1Cc1ccc(-c2ccc(F)cc2)s1
serum ALP activity (rabbit, STZ-nicotinamide type 2 diabetes, serum; dose not given, 28 days): 168 ± 1.74 U/L

CC[C@H](C)[C@@H]1NC(=O)[C@H](Cc2ccc(O)cc2)NC(=O)[C@@H](N)CSSC[C@@H](C(=O)N2CCC[C@H]2C(=O)N[C@@H](CCCCNC(=O)COCCOCCNC(=O)COCCOCCNC(=O)CC[C@H](NC(=O)CC[C@H](NC(=O)CCCCCCCCCCCCCCCCC(=O)O)C(=O)O)C(=O)O)C(=O)NCC(N)=O)NC(=O)[C@H](CC(N)=O)NC(=O)[C@H](CCC(N)=O)NC1=O
food intake suppression (C57BL/6 mice, diet-induced obese; subcutaneous, 2 µmol/kg daily; reference: vehicle): 21%

CCCCCCCCCCCCCCCC(=O)OCC(CSC[C@H](N)C(=O)N[C@@H](CO)C(=O)N[C@@H](CCCCN)C(=O)N[C@@H](CCCCN)C(=O)N[C@@H](CCCCN)C(=O)N[C@@H](CCCCN)C(=O)NCCCCCC(=O)N[C@@H](CCCCN)C(=O)N[C@@H](CC(C)C)C(=O)N[C@H](C(=O)N[C@@H](Cc1ccccc1)C(=O)N[C@@H](Cc1ccccc1)C(=O)N[C@@H](Cc1ccc2ccccc2c1)C(=O)O)C(C)C)OC(=O)CCCCCCCCCCCCCCC (some centres unmarked)
OC-positive plaque area (APP/PS1 mouse; intracortical, dose not given, 5 d; reference: vehicle): decreased

CCCCCCCCCC(=O)NCCCC[C@H](NC(=O)[C@H](CC(C)C)NC(=O)[C@H](CCCCN)NC(=O)[C@H](CCCCNC(=O)[C@H](CC(C)C)NC(=O)[C@H](CCN)NC(=O)[C@H](CCCCNC(=O)[C@H](Cc1ccccc1)NC(=O)[C@@H](N)CCCN)NC(=O)[C@H](Cc1ccccc1)NC(=O)[C@@H](N)CCCN)NC(=O)[C@H](CC(C)C)NC(=O)[C@H](CCN)NC(=O)[C@H](CCCCNC(=O)[C@H](Cc1ccccc1)NC(=O)[C@@H](N)CCCN)NC(=O)[C@H](Cc1ccccc1)NC(=O)[C@@H](N)CCCN)C(N)=O
leakage (carboxyfluorescein release; EYPC vesicles; 10 µg/mL, 250 s, pH 7.4, 25 °C; reference: Triton X-100): 1%

CCCC[C@H](NC(=O)[C@@H](NC(=O)[C@H](CC(=O)O)NC(=O)[C@H](CCC(N)=O)NC(=O)[C@H](CC(C)C)NC(=O)[C@H](CC(C)C)NC(=O)[C@H](CCCN)NC(=O)[C@H](CCCNC(=N)N)NC(=O)[C@H](C)NC(=O)[C@H](CO)NC(=O)[C@H](CC(C)C)NC(=O)[C@H](CCC(N)=O)NC(=O)[C@H](CC)NC(=O)[C@H](CC(C)C)NC(=O)[C@@H](NC(=O)[C@H](CCCN)NC(=O)[C@H](CCCNC(=N)N)NC(=O)[C@H](Cc1ccc(O)cc1)NC(=O)[C@H](CO)NC(=O)[C@H](CCC(N)=O)NC(=O)[C@@H](NC(=O)[C@H](Cc1c(F)c(F)c(F)c(F)c1F)NC(=O)[C@@H](NC(=O)[C@H](C)NC(=O)[C@H](CC(=O)O)NC(=O)[C@@H](C)NC(=O)[C@H](Cc1ccc(O)cc1)NC)[C@@H](C)CC)[C@@H](C)O)C(C)C)[C@@H](C)CC)C(=O)N[C@@H](CC(=O)O)C(=O)N[C@@H](CCCNC(=N)N)C(=O)NC
relative potency (GH release; male rat, serum; subcutaneous, dose not given, 15 min; reference: GHRH(1-29)NH2): 97.1

CNC(=O)N(C)c1ccc(C(=O)Nc2ccc(C)cc2C(=O)Nc2ccc(Cl)cn2)c(OC)c1
concentration doubling prothrombin time (human plasma): > 30 µM

C[C@H](CC(=O)C[C@@H](C)[C@H]1C[C@H](O)[C@@]2(C)C3=C(C(=O)C[C@]12C)[C@@]1(C)CCC(=O)C(C)(C)[C@@H]1C[C@@H]3O)C(=O)O
HbA1c (mouse, STZ-induced type 1 diabetes, blood; 20 mg/kg): 1.73 ± 0.18%

CCCC[C@H](NC(=O)[C@@H](NC(=O)[C@H](CC(=O)O)NC(=O)[C@H](CCC(N)=O)NC(=O)[C@H](CC(C)C)NC(=O)[C@H](CC(C)C)NC(=O)[C@H](CCCN)NC(=O)[C@H](CCCNC(=N)N)NC(=O)[C@H](C)NC(=O)[C@H](CO)NC(=O)[C@H](CC(C)C)NC(=O)[C@H](CCC(N)=O)NC(=O)[C@H](CC)NC(=O)[C@H](CC(C)C)NC(=O)[C@@H](NC(=O)[C@H](CCCN)NC(=O)[C@H](CCCNC(=N)N)NC(=O)[C@H](Cc1ccc(O)cc1)NC(=O)[C@H](CO)NC(=O)[C@H](CC(N)=O)NC(=O)[C@@H](NC(=O)[C@H](Cc1ccccc1)NC(=O)[C@@H](NC(=O)[C@H](C)NC(=O)[C@H](CC(=O)O)NC(=O)[C@@H](C)NC(=O)[C@H](Cc1ccc(O)cc1)NC)[C@@H](C)CC)[C@@H](C)O)C(C)C)[C@@H](C)CC)C(=O)N[C@@H](CC(=O)O)C(=O)NCCCCNC(=N)N
relative potency (GH release; rat, male, serum; subcutaneous, dose not given, 15 and 30 min; reference: reference GHRH agonist JI-38): 1 to 4 fold

COC1OC(C)C(OC2OC(C)C(O)C(OC3OC(C)C(OC4OC(C)C(O)C(OC5OC(C)C(OC6OC(C)C(O)C(OC7OC(C)C(OC8OC(C)C(O)C(OS(=O)(=O)O)C8OS(=O)(=O)O)C(OS(=O)(=O)O)C7OS(=O)(=O)O)C6OS(=O)(=O)O)C(OS(=O)(=O)O)C5OS(=O)(=O)O)C4OS(=O)(=O)O)C(OS(=O)(=O)O)C3OS(=O)(=O)O)C2OS(=O)(=O)O)C(OS(=O)(=O)O)C1OS(=O)(=O)O (centres unmarked)
concentration doubling APTT (clotting time; human plasma): 16.4 µg/mL

CCCC[C@H](NC(=O)[C@@H](NC(=O)[C@H](CC(=O)O)NC(=O)[C@H](CCC(N)=O)NC(=O)[C@H](CC(C)C)NC(=O)[C@H](CC(C)C)NC(=O)[C@H](CCCN)NC(=O)[C@H](CCCNC(=N)N)NC(=O)[C@H](C)NC(=O)[C@H](CO)NC(=O)[C@H](CC(C)C)NC(=O)[C@H](CCC(N)=O)NC(=O)[C@H](CC)NC(=O)[C@H](CC(C)C)NC(=O)[C@@H](NC(=O)[C@H](CCCN)NC(=O)[C@H](CCCNC(=N)N)NC(=O)[C@H](Cc1ccc(O)cc1)NC(=O)[C@H](CO)NC(=O)[C@H](CCC(N)=O)NC(=O)[C@@H](NC(=O)[C@H](Cc1ccccc1)NC(=O)[C@@H](NC(=O)[C@H](C)NC(=O)[C@H](CC(=O)O)NC(=O)[C@H](C)NC(=O)[C@H](Cc1ccc(O)cc1)NC)[C@@H](C)CC)[C@@H](C)O)C(C)C)[C@@H](C)CC)C(=O)N[C@@H](CC(=O)O)C(=O)NCCCCNC(=N)N
relative potency (GH release; rat, male, serum; subcutaneous, 3 µg/kg, 30 min; reference: reference GHRH agonist JI-38): 1.35

CC(=O)c1cnc(N)nc1N1CC[C@H]1c1nn2ccc(Cl)c2c(=O)n1-c1ccccc1
IC50 (Th17 differentiation, measured: IL-22; healthy donor whole blood): 0.13 µM

Some of these lines once more:
CC1=C(C2=C(C)C(=O)c3c(cc(O)c(O)c3Cc3ccccc3)C2=O)C(=O)c2cc(O)c(O)c(Cc3ccccc3)c2C1=O (single isomer, unassigned)
maximal activity (spleen shrinkage; B6 Bcl-2-transgenic mice; ip, 20 µmol/kg; reference: maximum 50%): ~82%

N=C(N)NCCC[C@@H](N)C(=O)NCC(=O)N[C@H](CCC(=O)O)C(=O)N[C@H](CCCNC(=N)N)C(=O)N1CCC[C@@H]1C(=O)N1CCC[C@@H]1C(=O)N[C@H](CCCNC(=N)N)C(N)=O
Evans blue tumour permeation increase (nude mouse A549 subcutaneous tumour; intravenous, 4 µmol/kg, 30 min, added: Evans blue 1 mg intravenous; reference: PBS control): 46.4%
